Published values of several laboratories.
Each line is one published result; not all experiments were run side by side. “And” joins repeats or separate records; there may be more than shown. ± gives the spread as reported.

CN[C@@](C)(C[18F])C(=O)O — tissue uptake (SCID mouse DU-145 xenograft, brain; 120 min, post injection): 0.3 ± 0.1 %ID/g
Cc1sc2c(c1C)C(c1ccc(Cl)cc1)=N[C@@H](CC(=O)OC(C)(C)C)c1nnc(C)n1-2 — recovery vs nominal (LC-MS; Ringer's solution; 50 ng/mL, time not given, glass vessel, plastic vial): 14.4% and 7.79%
CC(C)c1nc(CN(C)C(=O)N[C@H](C(=O)N[C@@H](Cc2ccccc2)C[C@H](O)[C@H](Cc2ccccc2)NC(=O)OCc2cncs2)C(C)C)cs1 — AUC(0-24) (healthy human volunteers, plasma; oral, dose not given, warfarin interaction study; relative to: given without warfarin): 11700 ng·h/mL
O=C(O)c1ccc2c(c1)C(=O)OC21c2ccc(O)cc2Oc2cc(O)ccc21 — Papp (excised Sprague-Dawley rat skin; 50 µM, 0 to 5 h, 37 °C, 0.5% DMSO): 0.0342 ×10⁻⁶ cm/s
CSCC[C@@H]1NC(=O)[C@H](CC(=O)O)NC(=O)CNC(=O)[C@H](CCCNC(=N)N)NC(=O)[C@H](C)NC(=O)[C@H](CCC(=O)O)NC(=O)[C@H](CCCNC(=N)N)NC(=O)[C@@H]2CSSC[C@@H]3NC(=O)[C@H](CO)NC(=O)[C@H]([C@@H](C)O)NC(=O)[C@@H]4CCCN4C(=O)[C@H](C)NC(=O)[C@H](Cc4c[nH]c5ccccc45)NC(=O)[C@H](CC(=O)O)NC(=O)CNC(=O)[C@H](CCCNC(=N)N)NC(=O)CNC(=O)[C@H](CCC(N)=O)NC(=O)[C@@H]4CCCN4C(=O)[C@@H](NC(=O)CNC(=O)C(C)F)CSSC[C@H](NC(=O)CNC(=O)[C@H](C)NC(=O)[C@H](CC(C)C)NC(=O)[C@H](CSSC[C@@H](C(=O)NCC(N)=O)NC(=O)[C@H]([C@@H](C)O)NC(=O)[C@H](CCCNC(=N)N)NC(=O)[C@@H]4CCCN4C1=O)NC(=O)[C@H](CC(=O)O)NC(=O)[C@H](CO)NC(=O)[C@H](CC(=O)O)NC(=O)[C@H](CCC(N)=O)NC(=O)[C@H](CO)NC3=O)C(=O)N[C@@H](C(C)C)C(=O)N2 (stereo partly drawn) [fluorine-18 labelled] — tissue uptake (nude mouse, U-87 MG xenograft, brain; intravenous, 2.5 h, added: cyclo(RGDyK) co-injected): 0.09 ± 0.01 %ID/g
Cc1ccc(Nc2nccc(N(C)c3ccc4c(C)n(C)nc4c3)n2)cc1S(N)(=O)=O — Cmin (patients with gastric acid suppression, plasma; oral, 600 mg once daily, 24 h, with food, first steady state, geometric mean): 26000 ng/mL
CC(=O)N[C@@H](CSC(Cl)=CCl)C(=O)O — necrotic proximal tubules (histopathology; Sprague-Dawley rats, male, kidney; ip, 230 µmol/kg, 24 h; relative to: region): > 75%
CC(C)N(CCCCOCC(=O)NS(C)(=O)=O)c1cnc(-c2ccccc2)c(-c2ccccc2)n1 — absorption lag time (human, PAH patients, plasma; oral, population PK estimate): 0.67 h
O=S(=O)(O)Oc1ccc(-c2cccc(Cl)c2)cc1Cl — dose fraction in tissues (Sprague-Dawley rat (male), liver, serum, kidneys, lungs, brain; iv, 575 µg/kg, 3 min): ~95%
[123I]c1cncc(OC[C@@H]2CCN2)c1 — tissue/plasma ratio (SPECT; human, temporal lobe; intravenous bolus, 9.1 mCi; relative to: plasma): 9.41
Nc1nc2c(c(=O)[nH]1)N(C=O)C(CNc1ccc(C(=O)N[C@@H](CCC(=O)O)C(=O)O)cc1)CN2 (stereo partly drawn) — MTD (human advanced solid tumours; intravenous, every 2 weeks, added: FOLFOX): 400 mg/m²
CC1(C)S[C@@H]2[C@H](NC(=O)[C@@H](C(=O)O)c3ccsc3)C(=O)N2[C@H]1C(=O)O — measured concentration (rat plasma; 30 ng/mL, -20 °C to room temperature, three freeze-thaw cycles): 31.5 ± 1.7 ng/mL

A few entries again:
[123I]c1cncc(OC[C@@H]2CCN2)c1 — tissue/plasma ratio (SPECT; human, temporal lobe; intravenous bolus, 9.1 mCi; relative to: plasma): 9.41
O=C(O)c1ccc2c(c1)C(=O)OC21c2ccc(O)cc2Oc2cc(O)ccc21 — Papp (excised Sprague-Dawley rat skin; 50 µM, 0 to 5 h, 37 °C, 0.5% DMSO): 0.0342 ×10⁻⁶ cm/s
